Measured values of several laboratories.
Lines come from different studies, so protocols differ.
U2AF2: U2AF2 148-342 (Homo sapiens, UniProt P26368)
UniProt P26368, sequence (whole entry, looked up): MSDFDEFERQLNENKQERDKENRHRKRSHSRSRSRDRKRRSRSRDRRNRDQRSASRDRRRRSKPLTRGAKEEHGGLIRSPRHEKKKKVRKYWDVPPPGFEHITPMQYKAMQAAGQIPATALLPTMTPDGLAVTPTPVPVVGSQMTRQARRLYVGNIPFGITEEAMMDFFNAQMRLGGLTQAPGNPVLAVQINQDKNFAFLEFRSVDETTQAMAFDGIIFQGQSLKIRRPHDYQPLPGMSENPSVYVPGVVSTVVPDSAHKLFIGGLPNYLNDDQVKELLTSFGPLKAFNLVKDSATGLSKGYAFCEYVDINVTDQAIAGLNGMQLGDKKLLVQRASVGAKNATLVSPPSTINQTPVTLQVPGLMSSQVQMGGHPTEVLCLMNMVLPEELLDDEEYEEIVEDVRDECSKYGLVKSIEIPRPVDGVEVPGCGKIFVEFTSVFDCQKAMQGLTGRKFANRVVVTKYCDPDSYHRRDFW
B1: CNOT1 1833-2361 (Homo sapiens, UniProt A5YKK6); sequence looked up; chain HSGISQASEYDDPPGLREKAEYLLREWVNLYHSAAAGRDSTKAFSAFVGQMHQQGILKTDDLITRFFRLCTEMCVEISYRAQAEQQHNPAANPTMIRAKCYHNLDAFVRLIALLVKHSGEATNTVTKINLLNKVLGIVVGVLLQDHDVRQSEFQQLPYHRIFIMLLLELNAPEHVLETINFQTLTAFCNTFHILRPTKAPGFVYAWLELISHRIFIARMLAHTPQQKGWPMYAQLLIDLFKYLAPFLRNVELTKPMQILYKGTLRVLLVLLHDFPEFLCDYHYGFCDVIPPNCIQLRNLILSAFPRNMRLPDPFTPNLKVDMLSEINIAPRILTNFTGVMPPQFKKDLDSYLKTRSPVTFLSDLRSNLQVSNEPGNRYNLQLINALVLYVGTQAIAHIHNKGSTPSMSTITHSAHMDIFQNLAVDLDTEGRYLFLNAIANQLRYPNSHTHYFSCTMLYLFAEANTEAIQEQITRVLLERLIVNRPHPWGLLITFIELIKNPAFKFWNHEFVHCAPEIEKLFQSVAQCCM
B2: ELM1 S605A/S604A/S519A/T463A/S424A/S422A/S324A (Saccharomyces cerevisiae, UniProt P32801); sequence looked up; chain MSPRQLIPTLIPEWAPLSQQSCIREDELDSPPITPTSQTSSFGSSFSQQKPTYSTIIGENIHTILDEIRPYVKKITVSDQDKKTINQYTLGVSAGSGQFGYVRKAYSSTLGKVVAVKIIPKKPWNAQQYSVNQVMRQIQLWKSKGKITTNMSGNEAMRLMNIEKCRWEIFAASRLRNNVHIVRLIECLDSPFSESIWIVTNWCSLGELQWKRDDDEDILPQWKKIVISNCSVSTFAKKILEDMTKGLEYLHSQGCIHRDIKPSNILLDEEEKVAKLSDFGSCIFTPQSLPFSDANFEDCFQRELNKIVGTPAFIAPELCHLGNAKRDFVTDGFKLDIWSLGVTLYCLLYNELPFFGENEFETYHKIIEVSLSSKINGNTLNDLVIKRLLEKDVTLRISIQDLVKVLSRDQPIDSRNHSQISASAVNPVRNEGPVRRFFGRLLTKKGKKKTSGKGKDKVLVSAASKVTPSIHIDEEPDKECFSTTVLRSSPDSSDYCSSLGEEAIQVTDFLDTFCRSNEALPNLTVNNDKQNSDMKTDRSESSSHSSLKIPTPIKAMIRLKSSPKENGNRTHINCSQDKPSSPLMDRTVGKRTVNNSGARKLAHAANILNFKAYINSEDSDIRETVEDVKTYLNFADNGQI
B3: SNAPC1 1-268 (Homo sapiens, UniProt Q16533); chain MGTPPGLQTDCEALLSRFQETDSVRFEDFTELWRNMKFGTIFCGRMRNLEKNMFTKEALALAWRYFLPPYTFQIRVGALYLLYGLYNTQLCQPKQKIRVALKDWDEVLKFQQDLVNAQHFDAAYIFRKLRLDRAFHFTAMPKLLSYRMKKKIHRAEVTEEFKDPSDRVMKLITSDVLEEMLNVHDHYQNMKHVISVDKSKPDKALSLIKDDFFDNIKNIVLEHQQWHKDRKNPSLKSKTNDGEEKMEGNSQETERCERAESLAKIKSK
B4: NECTIN2 32-160 (Homo sapiens, UniProt Q92692); sequence looked up; chain QDVRVQVLPEVRGQLGGTVELPCHLLPPVPGLYISLVTWQRPDAPANHQNVAAFHPKMGPSFPSPKPGSERLSFVSAKQSTGQDTEAELQDATLALHGLTVEDEGNYTCEFATFPKGSVRGMTWLRVIA
B5: ANGPTL8 (Homo sapiens, UniProt Q6UXH0); sequence looked up; chain APMGGPELAQHEELTLLFHGTLQLGQALNGVYRTTEGRLTKARNSLGLYGRTIELLGQEVSRGRDAAQELRASLLETQMEEDILQLQAEATAEVLGEVAQAQKVLRDSVQRLEVQLRSAWLGPAYREFEVLKAHADKQSHILWALTGHVQRQRREMVAQQHRLRQIQERLHTAALPA
B6: NUP60 200-318 (Saccharomyces cerevisiae, UniProt P39705); sequence looked up; chain SMNTTLGSIGSRKYSFNYSSLPSPYKTTVYRYSAAKKIPDTYTANTSAQSIASAKSVRSGVSKSAPSKKISNTAAALVSLLDENDSKKNNAASELANPYSSYVSQIRKHKRVSPNAAPR
B7: ND4L 1-89 (Yarrowia lipolytica, UniProt Q9B6D4); sequence looked up; chain MFIGTIILVLSFLGFVFNRRNIILAFICLETMLLGINLILLRNSVLFDDISGSLFAIVIIILAGVESAIGLSLLVSYYRLRGVINSYGI
B8: ATG9 1-100 (Saccharomyces cerevisiae, UniProt Q12142); sequence looked up; chain MERDEYQLPNSHGKNTFLSRIFGLQSDEVNPSLNSQEMSNFPLPDIERGSSLLHSTNDSREDVDENDLRVPESDQGTSTEEEDEVDEEQVQAYAPQISDG
B9: Notch1 221-526 (Mus musculus, UniProt Q01705); sequence looked up; chain PCSPSPCQNGGTCRPTGDTTHECACLPGFAGQNCEENVDDCPGNNCKNGGACVDGVNTYNCRCPPEWTGQYCTEDVDECQLMPNACQNGGTCHNTHGGYNCVCVNGWTGEDCSENIDDCASAACFQGATCHDRVASFYCECPHGRTGLLCHLNDACISNPCNEGSNCDTNPVNGKAICTCPSGYTGPACSQDVDECALGANPCEHAGKCLNTLGSFECQCLQGYTGPRCEIDVNECISNPCQNDATCLDQIGEFQCICMPGYEGVYCEINTDECASSPCLHNGHCMDKINEFQCQCPKGFNGHLCQ
B10: AHA2 850-948 (Arabidopsis thaliana, UniProt P19456); sequence looked up; chain WLNLFENKTAFTMKKDYGKEEREAQWALAQRTLHGLQPKEAVNIFPEKGSYRELSEIAEQAKRRAEIARLRELHTLKGHVESVVKLKGLDIETPSHYTV
B11: tnsD 1-318 (Escherichia coli, UniProt P13991); sequence looked up; chain MRNFPVPYSNELIYSTIARAGVYQGIVSPKQLLDEVYGNRKVVATLGLPSHLGVIARHLHQTGRYAVQQLIYEHTLFPLYAPFVGKERRDEAIRLMEYQAQGAVHLMLGVAASRVKSDNRFRYCPDCVALQLNRYGEAFWQRDWYLPALPYCPKHGALVFFDRAVDDHRHQFWALGHTELLSDYPKDSLSQLTALAAYIAPLLDAPRAQELSPSLEQWTLFYQRLAQDLGLTKSKHIRHDLVAERVRQTFSDEALEKLDLKLAENKDTCWLKSIFRKHRKAFSYLQHSIVWQALLPKLTVIEALQQASALTEHSITTR
B12: CCDC32 1-100 (Mus musculus, UniProt Q8BS39); chain MKMFESLDSSATKSGRDLWAEICSCLPSPAQEDVSDNAFSDSFMDSHPAGESHTAAADSAVQPAGKPWAPLHDSEVYLASLEKKLRRIKGLNEEVTSKDM
B13: SPOP 28-359 (Homo sapiens, UniProt O43791); sequence looked up; chain KVVKFSYMWTINNFSFCREEMGEVIKSSTFSSGANDKLKWCLRVNPKGLDEESKDYLSLYLLLVSCPKSEVRAKFKFSILNAKGEETKAMESQRAYRFVQGKDWGFKKFIRRDFLLDEANGLLPDDKLTLFCEVSVVQDSVNISGQNTMNMVKVPECRLADELGGLWENSRFTDCCLCVAGQEFQAHKAILAARSPVFSAMFEHEMEESKKNRVEINDVEPEVFKEMMCFIYTGKAPNLDKMADDLLAAADKYALERLKVMCEDALCSNLSVENAAEILILADLHSADQLKTQAVDFINYHASDVLETSGWKSMVVSHPHLVAEAYRSLASA
B14: ABCG16 1-145 (Arabidopsis thaliana, UniProt Q9M2V7); sequence looked up; chain MSRILVEDDNATPFHSMEIISSSLTLGQLLKNVSDVRKVEVGDETPVHEFFDRDGSSLDGDNDHLMRPVPFVLSFNNLTYNVSVRRKLDFHDLVPWRRTSFSKTKTLLDNISGETRDGEILAVLGASGSGKSTLIDALANRIAKG
B15: PduA 2-94 (Salmonella enterica, UniProt P0A1C7); chain QQEALGMVETKGLTAAIEAADAMVKSANVMLVGYEKIGSGLVTVIVRGDVGAVKAATDAGAAAARNVGEVKAVHVIPRPHTDVEKILPKGISQ
UniProt O65370, sequence (whole entry, looked up): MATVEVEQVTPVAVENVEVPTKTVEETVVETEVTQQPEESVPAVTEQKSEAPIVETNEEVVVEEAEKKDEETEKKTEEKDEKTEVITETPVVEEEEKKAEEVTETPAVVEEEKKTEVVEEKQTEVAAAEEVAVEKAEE
UniProt Q00610, sequence (whole entry, looked up): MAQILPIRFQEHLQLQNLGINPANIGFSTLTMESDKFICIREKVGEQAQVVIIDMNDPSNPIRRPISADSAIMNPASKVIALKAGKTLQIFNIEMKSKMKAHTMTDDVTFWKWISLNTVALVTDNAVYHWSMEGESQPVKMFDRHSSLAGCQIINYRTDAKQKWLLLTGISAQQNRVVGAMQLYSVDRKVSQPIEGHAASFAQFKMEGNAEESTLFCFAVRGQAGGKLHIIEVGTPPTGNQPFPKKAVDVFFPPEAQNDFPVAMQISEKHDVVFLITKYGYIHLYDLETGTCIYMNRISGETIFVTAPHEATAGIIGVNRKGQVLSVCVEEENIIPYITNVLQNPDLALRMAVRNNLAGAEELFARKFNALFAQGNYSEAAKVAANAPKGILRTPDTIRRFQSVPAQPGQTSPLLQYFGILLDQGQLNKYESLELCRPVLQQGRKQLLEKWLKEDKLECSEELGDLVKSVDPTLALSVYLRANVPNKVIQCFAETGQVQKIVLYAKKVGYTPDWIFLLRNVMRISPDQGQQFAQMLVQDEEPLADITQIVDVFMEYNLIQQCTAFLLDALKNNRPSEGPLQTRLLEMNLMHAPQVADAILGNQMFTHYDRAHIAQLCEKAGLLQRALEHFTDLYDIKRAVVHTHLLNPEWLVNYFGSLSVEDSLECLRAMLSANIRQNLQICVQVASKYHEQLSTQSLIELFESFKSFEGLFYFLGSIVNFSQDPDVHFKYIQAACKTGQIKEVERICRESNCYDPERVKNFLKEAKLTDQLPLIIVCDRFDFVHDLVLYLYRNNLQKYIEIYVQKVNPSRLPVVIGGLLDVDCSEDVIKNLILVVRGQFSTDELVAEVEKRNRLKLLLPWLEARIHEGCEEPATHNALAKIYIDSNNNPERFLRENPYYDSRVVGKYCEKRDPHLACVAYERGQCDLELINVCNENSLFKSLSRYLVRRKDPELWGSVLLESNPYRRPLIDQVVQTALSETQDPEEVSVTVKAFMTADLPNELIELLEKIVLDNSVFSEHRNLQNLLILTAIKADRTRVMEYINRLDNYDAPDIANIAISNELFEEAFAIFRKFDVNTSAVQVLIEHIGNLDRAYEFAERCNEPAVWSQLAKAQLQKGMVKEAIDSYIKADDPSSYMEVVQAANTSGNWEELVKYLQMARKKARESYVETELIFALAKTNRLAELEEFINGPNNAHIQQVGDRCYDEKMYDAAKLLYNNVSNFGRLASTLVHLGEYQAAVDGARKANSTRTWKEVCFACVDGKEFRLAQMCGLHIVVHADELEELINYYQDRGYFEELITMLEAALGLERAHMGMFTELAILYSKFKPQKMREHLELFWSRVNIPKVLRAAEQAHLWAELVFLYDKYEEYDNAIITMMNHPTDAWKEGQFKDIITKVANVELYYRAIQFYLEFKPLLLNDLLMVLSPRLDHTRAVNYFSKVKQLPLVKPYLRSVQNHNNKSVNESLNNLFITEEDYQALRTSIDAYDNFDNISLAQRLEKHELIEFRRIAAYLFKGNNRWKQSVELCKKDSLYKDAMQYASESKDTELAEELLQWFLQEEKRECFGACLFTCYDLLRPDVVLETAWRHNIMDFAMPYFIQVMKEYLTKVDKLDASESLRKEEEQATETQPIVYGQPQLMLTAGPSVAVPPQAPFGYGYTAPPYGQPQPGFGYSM
UniProt O94874, sequence (whole entry, looked up): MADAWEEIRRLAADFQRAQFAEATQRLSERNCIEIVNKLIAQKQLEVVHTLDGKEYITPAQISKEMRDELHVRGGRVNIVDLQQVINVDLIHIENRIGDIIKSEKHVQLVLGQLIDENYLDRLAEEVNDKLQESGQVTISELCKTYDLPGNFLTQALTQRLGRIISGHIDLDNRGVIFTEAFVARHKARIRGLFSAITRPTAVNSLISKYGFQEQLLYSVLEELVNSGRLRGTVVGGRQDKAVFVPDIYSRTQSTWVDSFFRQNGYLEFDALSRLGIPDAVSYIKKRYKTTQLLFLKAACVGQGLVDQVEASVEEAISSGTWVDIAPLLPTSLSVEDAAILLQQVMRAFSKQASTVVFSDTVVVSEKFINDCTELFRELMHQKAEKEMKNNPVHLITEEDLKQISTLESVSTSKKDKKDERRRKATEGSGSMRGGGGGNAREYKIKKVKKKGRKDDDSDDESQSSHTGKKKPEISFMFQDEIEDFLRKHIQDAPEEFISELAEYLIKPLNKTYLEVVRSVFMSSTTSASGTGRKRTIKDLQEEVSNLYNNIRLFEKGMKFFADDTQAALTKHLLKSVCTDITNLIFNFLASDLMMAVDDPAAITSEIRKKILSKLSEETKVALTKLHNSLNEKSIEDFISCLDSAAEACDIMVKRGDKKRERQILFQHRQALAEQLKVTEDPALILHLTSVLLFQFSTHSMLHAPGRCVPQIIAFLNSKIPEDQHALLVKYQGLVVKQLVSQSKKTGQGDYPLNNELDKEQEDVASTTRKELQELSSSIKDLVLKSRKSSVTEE
UniProt O49545, sequence (whole entry, looked up): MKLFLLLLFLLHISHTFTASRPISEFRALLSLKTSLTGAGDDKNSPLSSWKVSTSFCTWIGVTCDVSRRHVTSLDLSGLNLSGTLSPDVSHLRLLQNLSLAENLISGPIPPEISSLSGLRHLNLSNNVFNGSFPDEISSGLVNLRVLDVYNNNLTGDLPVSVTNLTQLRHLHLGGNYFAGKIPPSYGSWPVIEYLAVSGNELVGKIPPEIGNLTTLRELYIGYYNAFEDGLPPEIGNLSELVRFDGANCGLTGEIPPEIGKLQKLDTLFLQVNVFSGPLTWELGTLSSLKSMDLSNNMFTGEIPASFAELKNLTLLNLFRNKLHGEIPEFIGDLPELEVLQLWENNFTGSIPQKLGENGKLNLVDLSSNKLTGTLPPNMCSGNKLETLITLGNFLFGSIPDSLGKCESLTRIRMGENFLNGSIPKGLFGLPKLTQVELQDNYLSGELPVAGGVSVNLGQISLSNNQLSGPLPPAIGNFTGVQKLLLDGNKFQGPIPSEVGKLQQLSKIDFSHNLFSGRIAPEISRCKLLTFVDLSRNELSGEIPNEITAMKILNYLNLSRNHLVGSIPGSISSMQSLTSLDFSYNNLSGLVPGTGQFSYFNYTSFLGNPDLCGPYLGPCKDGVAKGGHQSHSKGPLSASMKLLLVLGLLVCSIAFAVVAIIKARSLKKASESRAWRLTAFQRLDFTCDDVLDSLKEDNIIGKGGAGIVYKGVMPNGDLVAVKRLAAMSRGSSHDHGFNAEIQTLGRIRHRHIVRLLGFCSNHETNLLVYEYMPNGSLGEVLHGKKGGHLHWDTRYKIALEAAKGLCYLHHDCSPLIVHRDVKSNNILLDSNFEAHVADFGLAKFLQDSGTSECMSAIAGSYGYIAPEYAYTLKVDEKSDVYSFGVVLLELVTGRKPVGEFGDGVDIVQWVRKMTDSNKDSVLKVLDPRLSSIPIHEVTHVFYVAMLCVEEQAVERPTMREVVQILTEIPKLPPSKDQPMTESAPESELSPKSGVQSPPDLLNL
UniProt P84091, sequence (whole entry, looked up): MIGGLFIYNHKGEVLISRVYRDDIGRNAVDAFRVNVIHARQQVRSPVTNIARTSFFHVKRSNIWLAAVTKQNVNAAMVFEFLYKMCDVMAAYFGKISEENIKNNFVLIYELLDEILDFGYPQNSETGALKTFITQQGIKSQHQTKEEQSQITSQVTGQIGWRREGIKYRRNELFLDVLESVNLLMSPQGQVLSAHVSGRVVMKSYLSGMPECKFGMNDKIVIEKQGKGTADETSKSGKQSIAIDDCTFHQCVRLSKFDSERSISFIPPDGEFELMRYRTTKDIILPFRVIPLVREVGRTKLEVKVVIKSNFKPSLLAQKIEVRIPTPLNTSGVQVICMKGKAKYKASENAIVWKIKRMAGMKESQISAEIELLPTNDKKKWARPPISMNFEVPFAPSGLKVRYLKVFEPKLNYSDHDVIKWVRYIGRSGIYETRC
UniProt Q6DKI7, sequence (whole entry, looked up): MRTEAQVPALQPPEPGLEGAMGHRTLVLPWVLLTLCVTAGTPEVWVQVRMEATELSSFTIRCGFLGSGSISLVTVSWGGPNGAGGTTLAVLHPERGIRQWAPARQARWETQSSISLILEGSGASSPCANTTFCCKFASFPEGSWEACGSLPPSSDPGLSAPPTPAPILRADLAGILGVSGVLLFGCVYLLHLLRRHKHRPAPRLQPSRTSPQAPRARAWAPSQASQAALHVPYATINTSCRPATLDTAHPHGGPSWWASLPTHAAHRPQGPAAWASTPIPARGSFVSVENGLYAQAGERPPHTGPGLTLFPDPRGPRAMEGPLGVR
UniProt Q9B6E9, sequence (whole entry, looked up): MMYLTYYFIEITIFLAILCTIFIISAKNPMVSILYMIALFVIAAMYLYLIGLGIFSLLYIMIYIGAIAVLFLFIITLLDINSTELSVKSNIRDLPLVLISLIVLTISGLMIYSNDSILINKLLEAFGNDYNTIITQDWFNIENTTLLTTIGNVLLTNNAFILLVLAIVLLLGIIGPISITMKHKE

Substance	tested on	test	system	setting	how to read	measurement	result
NGVGGSWGVFSSGESPAIVPD (TET3 1450-1470 (Homo sapiens, UniProt O43151); sequence looked up)	KMT2D 1503-1562 (Homo sapiens, UniProt O14686)	NMR				binding	binds
GPATCH4 (Homo sapiens, UniProt Q5T3I0)	DDX21 (Homo sapiens, UniProt Q9NR30)	pull-down				binding	binds
B1 (CNOT1 1833-2361)	PUM1 589-1186 (Homo sapiens, UniProt Q14671)	cross-linking				binding	binds
B2	GIN4 (Saccharomyces cerevisiae, UniProt Q12263)	pull-down				binding	binds
B3 (SNAPC1 1-268)	SNAPC3 (Homo sapiens, UniProt Q92966)	cryo-EM				binding	binds
B4 (NECTIN2 32-160)	PVRIG ECD , deglycosylated 41-172 (Homo sapiens, UniProt Q6DKI7)	crystal structure				binding	binds
human NONO	CYB5R4 knockout human cells	PP6 interaction, 3xFLAG-PP6C IP-MS		concentration not given	relative to: CYB5R4 KO over parental	log2 fold change	-0.2
B5 (ANGPTL8)	ANGPTL3 full length, homotrimer (Homo sapiens, UniProt Q9Y5C1)	HDX-MS		25 °C		binding	binds
B6 (NUP60 200-318)	NUP85 (Saccharomyces cerevisiae, UniProt P46673)	cross-linking				binding	binds
B7 (ND4L 1-89)	ND6 1-185 (Yarrowia lipolytica, UniProt Q9B6E9)	cryo-EM				binding	binds
GCUUGUUUU (ssRNA)	U2AF2	sequencing of bound RNA	RNA	motif only		Kd	3.72 µM
B8 (ATG9 1-100)	ATG23 Y16E (Saccharomyces cerevisiae, UniProt Q06671)	pull-down		15 minutes, 4 °C		binding	binds
RAD52 (Homo sapiens, UniProt P43351)	SETX (Homo sapiens, UniProt Q7Z333)	pull-down				binding	binds
B9 (Notch1 221-526)	DLL4 27-400 G28S/F107L/I143F/H194Y/L206P (Homo sapiens, UniProt Q9NR61)	SPR				binding	binds
B10 (AHA2 850-948)	CCaP2 (Arabidopsis thaliana, UniProt O65370)	pull-down		in vitro		binding	binds
B11 (tnsD 1-318)	tnsC 1-503 A225V (Escherichia coli, UniProt P05846)	native gel, EMSA		together with: ATPγS		binding	binds
GSGSPVPSTPPTPSPSTPPTPSPSCCHPRR (IGHA1 hinge 252-276 (Homo sapiens); GalNAc glycosylated)	TFRC fragment (Homo sapiens)	SPR	peptide			binding	binds
B12 (CCDC32 1-100)	Ap2m1 122-435 (Mus musculus, UniProt P84091)	pull-down				binding	binds
KESALRKQDLLLIFDPLLR (TACC3 to 568 550-568 S558D/Y560L/K562I (Homo sapiens, UniProt Q9Y6A5); sequence looked up)	CLTC 358-574 (Homo sapiens, UniProt Q00610)	peptide array	peptide			binding	binds
B13 (SPOP 28-359)	AR 1-559, rhodamine label (UniProt P10275)	fluorescence polarization				binding	binds
TKQTARKSTGGKA (H3 peptide residues 3-x 4-16 (UniProt P68431); K9me3)	CBX7 8-62 D50C/R52D (Homo sapiens, UniProt O95931)	array	peptide			binding	binds
B14 (ABCG16 1-145)	BAM1 694-963 (Arabidopsis thaliana, UniProt O49545)	pull-down				binding	binds
UUUUUUGAA (ssRNA)	U2AF2	sequencing of bound RNA	RNA	motif only		Kd	14.8 µM
BAP1 (Homo sapiens, UniProt Q92560)	UFL1 (Homo sapiens, UniProt O94874)	pull-down				binding	binds
B15 (PduA 2-94)	PduD (Salmonella enterica, UniProt O31041)	cross-linking				binding	binds
